Results gathered from unrelated publications.
Numbered parts are unrelated; each lists some results of a single study.
Sequence of UniProt Q16644 (whole entry, looked up): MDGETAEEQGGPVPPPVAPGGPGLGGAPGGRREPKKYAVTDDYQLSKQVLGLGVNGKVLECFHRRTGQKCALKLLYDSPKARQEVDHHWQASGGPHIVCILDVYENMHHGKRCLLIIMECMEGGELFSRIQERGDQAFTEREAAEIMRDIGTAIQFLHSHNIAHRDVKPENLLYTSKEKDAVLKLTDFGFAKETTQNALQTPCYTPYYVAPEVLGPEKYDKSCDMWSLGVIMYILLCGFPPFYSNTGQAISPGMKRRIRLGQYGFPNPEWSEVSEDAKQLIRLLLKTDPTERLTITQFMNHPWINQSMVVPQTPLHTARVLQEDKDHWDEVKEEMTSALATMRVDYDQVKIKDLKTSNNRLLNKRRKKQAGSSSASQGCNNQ
Sequence of UniProt O75914 (whole entry, looked up): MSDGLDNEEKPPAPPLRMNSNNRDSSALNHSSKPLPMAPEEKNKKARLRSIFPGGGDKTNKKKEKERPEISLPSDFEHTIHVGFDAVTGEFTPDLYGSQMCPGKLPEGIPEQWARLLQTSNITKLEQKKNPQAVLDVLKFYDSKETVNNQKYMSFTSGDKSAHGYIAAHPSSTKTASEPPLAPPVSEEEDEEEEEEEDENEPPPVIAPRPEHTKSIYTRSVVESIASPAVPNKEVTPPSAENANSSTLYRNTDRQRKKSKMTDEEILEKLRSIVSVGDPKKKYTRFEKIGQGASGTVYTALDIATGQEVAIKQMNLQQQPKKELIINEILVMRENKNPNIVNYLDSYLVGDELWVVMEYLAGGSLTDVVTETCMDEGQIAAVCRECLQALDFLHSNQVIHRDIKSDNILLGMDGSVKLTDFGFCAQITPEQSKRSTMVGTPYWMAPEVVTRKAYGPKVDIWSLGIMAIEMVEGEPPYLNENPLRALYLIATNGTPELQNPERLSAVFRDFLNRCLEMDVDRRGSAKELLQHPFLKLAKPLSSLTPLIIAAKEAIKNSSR
Sequence of UniProt P10721 (whole entry, unmodified, looked up): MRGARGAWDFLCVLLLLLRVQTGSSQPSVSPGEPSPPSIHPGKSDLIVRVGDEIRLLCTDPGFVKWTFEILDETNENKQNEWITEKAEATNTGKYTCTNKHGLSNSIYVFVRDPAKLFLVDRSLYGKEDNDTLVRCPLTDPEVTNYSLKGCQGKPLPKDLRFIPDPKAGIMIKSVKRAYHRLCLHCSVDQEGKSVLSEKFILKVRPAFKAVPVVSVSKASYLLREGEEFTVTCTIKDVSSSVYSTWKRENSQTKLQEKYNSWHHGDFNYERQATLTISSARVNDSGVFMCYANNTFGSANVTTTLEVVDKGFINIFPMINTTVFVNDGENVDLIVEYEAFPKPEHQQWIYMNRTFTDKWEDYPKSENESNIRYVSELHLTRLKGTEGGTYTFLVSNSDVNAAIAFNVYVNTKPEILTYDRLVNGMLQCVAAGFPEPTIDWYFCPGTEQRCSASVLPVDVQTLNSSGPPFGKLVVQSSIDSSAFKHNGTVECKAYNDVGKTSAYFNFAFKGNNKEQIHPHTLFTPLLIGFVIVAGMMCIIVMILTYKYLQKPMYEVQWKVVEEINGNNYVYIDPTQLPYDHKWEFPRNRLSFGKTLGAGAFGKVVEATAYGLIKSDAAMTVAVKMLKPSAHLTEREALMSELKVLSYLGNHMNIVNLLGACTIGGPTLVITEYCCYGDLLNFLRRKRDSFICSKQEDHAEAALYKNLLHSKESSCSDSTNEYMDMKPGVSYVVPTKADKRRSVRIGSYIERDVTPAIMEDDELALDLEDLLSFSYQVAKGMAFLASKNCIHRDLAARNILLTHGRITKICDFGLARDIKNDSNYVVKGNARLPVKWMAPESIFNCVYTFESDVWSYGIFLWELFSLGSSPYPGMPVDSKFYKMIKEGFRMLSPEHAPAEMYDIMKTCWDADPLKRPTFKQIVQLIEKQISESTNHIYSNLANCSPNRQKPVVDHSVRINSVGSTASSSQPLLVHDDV
Sequence of UniProt O43781 (whole entry, looked up): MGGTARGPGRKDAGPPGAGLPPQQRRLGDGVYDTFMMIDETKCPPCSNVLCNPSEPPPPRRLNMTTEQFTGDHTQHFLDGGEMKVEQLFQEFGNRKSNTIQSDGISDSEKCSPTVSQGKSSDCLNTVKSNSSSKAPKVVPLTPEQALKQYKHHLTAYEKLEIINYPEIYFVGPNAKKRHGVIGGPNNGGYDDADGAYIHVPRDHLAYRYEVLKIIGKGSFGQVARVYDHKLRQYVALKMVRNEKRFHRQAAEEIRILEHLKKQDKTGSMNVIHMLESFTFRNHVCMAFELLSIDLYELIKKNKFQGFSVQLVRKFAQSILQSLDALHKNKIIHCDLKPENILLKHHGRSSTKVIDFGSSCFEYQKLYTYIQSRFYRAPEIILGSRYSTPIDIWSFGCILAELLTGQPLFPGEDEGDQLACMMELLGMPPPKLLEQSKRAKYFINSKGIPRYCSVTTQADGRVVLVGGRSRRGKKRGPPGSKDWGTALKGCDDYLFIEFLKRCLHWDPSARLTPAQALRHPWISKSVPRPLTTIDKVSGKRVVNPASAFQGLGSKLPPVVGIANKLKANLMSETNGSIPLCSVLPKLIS
Sequence of UniProt P0C264 (whole entry, looked up): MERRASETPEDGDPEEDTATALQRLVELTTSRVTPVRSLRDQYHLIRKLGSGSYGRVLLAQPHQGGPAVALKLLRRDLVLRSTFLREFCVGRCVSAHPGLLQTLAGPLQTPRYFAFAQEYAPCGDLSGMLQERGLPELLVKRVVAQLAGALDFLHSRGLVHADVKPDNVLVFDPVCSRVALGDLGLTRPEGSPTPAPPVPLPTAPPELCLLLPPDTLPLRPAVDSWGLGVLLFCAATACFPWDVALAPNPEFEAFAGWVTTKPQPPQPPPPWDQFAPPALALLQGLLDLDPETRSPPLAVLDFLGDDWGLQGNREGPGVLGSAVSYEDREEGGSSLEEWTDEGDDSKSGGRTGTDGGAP
Sequence of UniProt Q8NG66 (whole entry, looked up): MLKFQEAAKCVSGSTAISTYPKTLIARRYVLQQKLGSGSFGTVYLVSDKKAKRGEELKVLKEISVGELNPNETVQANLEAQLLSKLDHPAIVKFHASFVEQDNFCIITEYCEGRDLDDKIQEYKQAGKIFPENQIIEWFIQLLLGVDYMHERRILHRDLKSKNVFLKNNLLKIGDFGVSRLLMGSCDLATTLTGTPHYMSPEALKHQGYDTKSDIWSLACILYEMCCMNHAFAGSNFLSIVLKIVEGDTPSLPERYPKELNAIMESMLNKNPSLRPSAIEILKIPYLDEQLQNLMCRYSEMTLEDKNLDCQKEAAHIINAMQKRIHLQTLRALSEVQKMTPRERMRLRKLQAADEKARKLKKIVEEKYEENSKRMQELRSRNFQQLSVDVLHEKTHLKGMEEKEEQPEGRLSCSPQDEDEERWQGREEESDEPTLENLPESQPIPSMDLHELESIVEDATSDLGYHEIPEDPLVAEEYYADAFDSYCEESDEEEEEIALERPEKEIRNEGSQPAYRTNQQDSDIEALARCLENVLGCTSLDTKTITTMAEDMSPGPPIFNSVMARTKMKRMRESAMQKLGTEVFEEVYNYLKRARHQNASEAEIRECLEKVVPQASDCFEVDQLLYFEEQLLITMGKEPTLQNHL
Sequence of UniProt Q9UEE5 (whole entry, looked up): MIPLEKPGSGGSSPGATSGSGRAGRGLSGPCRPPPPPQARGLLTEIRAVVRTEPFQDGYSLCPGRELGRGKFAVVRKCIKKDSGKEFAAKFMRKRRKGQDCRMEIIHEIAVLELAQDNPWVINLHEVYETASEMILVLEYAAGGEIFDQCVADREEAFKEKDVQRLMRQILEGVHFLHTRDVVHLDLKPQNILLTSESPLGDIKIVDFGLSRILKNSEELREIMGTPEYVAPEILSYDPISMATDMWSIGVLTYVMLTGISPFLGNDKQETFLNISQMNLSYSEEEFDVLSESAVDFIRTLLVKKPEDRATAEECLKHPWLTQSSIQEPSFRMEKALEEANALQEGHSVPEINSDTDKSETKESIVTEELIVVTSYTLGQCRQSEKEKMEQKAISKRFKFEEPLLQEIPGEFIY

Block 1
Compound: C[C@@H](c1cccc(C#N)c1)n1cc(Cl)cc(C(N)=O)c1=N
Read-out: cell-free assay
Technique: competition with immobilised ligand
Tested at: 1 µM
target | remaining binding
Epidermal growth factor receptor (EGFR, Homo sapiens, UniProt P00533) | 100%
Interleukin-1 receptor-associated kinase 4 (IRAK4, Homo sapiens, UniProt Q9NWZ3) | 87%
Vascular endothelial growth factor receptor 2 (KDR, Homo sapiens, UniProt P35968) | 73%
Wee1-like protein kinase 2 (WEE2, Homo sapiens, UniProt P0C1S8) | 77%
Mast/stem cell growth factor receptor Kit (KIT, Homo sapiens, UniProt P10721, L576P) | 86%
Rhodopsin kinase GRK7 (GRK7, Homo sapiens, UniProt Q8WTQ7) | 82%
Serine/threonine-protein kinase Nek11 (NEK11, Homo sapiens, UniProt Q8NG66) | 92%
Serine/threonine-protein kinase PAK 3 (PAK3, Homo sapiens, UniProt O75914) | 94%
cAMP-dependent protein kinase catalytic subunit beta (PRKACB, Homo sapiens, UniProt P22694) | 100%
Uncharacterized serine/threonine-protein kinase SBK3 (SBK3, Homo sapiens, UniProt P0C264) | 95%
Insulin receptor-related protein (INSRR, Homo sapiens, UniProt P14616) | 100%
Cyclin-dependent kinase 16 (CDK16, Homo sapiens, UniProt Q00536) | 96%

Block 2
Structure (SMILES): C=CCc1ccc(O)c(-c2cc(CC=C)ccc2O)c1
Read-out: chloride current
ANO1 del476-501/R541A: Anoctamin-1 (ANO1, Homo sapiens, UniProt Q5XXA6, del476-501/R541A)
Sequence of UniProt Q5XXA6 (whole entry, unmodified, looked up): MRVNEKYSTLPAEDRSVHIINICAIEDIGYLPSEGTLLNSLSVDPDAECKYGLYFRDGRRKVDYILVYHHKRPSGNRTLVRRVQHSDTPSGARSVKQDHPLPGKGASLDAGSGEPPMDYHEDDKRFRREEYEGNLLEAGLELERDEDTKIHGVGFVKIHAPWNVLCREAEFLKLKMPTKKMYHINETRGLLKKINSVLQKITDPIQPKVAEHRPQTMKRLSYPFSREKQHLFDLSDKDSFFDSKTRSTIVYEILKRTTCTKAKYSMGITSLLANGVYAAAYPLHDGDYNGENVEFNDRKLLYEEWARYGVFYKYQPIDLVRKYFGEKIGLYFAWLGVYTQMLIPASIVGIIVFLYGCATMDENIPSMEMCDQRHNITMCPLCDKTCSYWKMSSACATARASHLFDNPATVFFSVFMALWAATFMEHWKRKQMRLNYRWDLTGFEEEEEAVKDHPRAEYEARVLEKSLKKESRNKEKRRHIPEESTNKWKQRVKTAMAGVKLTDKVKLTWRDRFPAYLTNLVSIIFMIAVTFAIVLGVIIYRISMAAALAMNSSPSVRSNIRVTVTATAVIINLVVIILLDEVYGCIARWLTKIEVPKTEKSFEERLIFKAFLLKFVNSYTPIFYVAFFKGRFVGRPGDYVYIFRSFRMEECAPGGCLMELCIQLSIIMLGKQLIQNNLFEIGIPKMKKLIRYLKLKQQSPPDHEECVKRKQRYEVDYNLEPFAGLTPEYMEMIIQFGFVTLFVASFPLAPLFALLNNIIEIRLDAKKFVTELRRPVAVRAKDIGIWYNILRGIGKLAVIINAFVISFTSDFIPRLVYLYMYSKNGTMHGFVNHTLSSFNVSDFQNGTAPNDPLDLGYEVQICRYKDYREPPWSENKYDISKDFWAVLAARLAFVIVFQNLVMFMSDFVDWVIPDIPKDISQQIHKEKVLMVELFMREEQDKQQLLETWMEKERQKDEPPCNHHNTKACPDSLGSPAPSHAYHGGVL
ANO1 del476-501/E649A: Anoctamin-1 (ANO1, Homo sapiens, UniProt Q5XXA6, del476-501/E649A)
ANO1 del476-501: Anoctamin-1 (ANO1, Homo sapiens, UniProt Q5XXA6, del476-501)
ANO1 del476-501/E649A/R541A: Anoctamin-1 (ANO1, Homo sapiens, UniProt Q5XXA6, del476-501/E649A/R541A)
target | assay | conditions | how to read | normalized current
Anoctamin-1 (ANO1, Homo sapiens, UniProt Q5XXA6, del476-501/E659A) | inhibitor, inside-out patch clamp | 30 µM, E633A mutant at -100 mV |  | -1.01
Anoctamin-1 (ANO1, Homo sapiens, UniProt Q5XXA6) | inhibitor, inside-out patch clamp | 30 µM, wild type at -80 mV |  | 90.9
ANO1 del476-501/R541A | whole-cell voltage clamp | 3 µM, membrane voltage 0 mV, together with: 4 µM Ca2+ (saturating) |  | -0.0053
ANO1 del476-501/R541A | inside-out patch clamp | 30 µM, membrane voltage 120 mV |  | 1
ANO1 del476-501/E649A | inhibitor, inside-out patch clamp | 30 µM, E623A mutant at -100 mV |  | -0.596
ANO1 del476-501/R541A | inhibitor, inside-out patch clamp | 30 µM, R515A mutant at -80 mV |  | -0.441
ANO1 del476-501/E649A | inhibitor, inside-out patch clamp | 30 µM, E623A mutant at -80 mV |  | -0.501
ANO1 del476-501/R541A | inside-out patch clamp | 30 µM, membrane voltage 0 mV |  | -0.0008
ANO1 del476-501 | whole-cell voltage clamp | 30 µM, membrane voltage 0 mV, together with: 4 µM Ca2+ (saturating) |  | -0.00026
ANO1 del476-501 | whole-cell voltage clamp | 1 µM, membrane voltage 0 mV, together with: 4 µM Ca2+ (saturating) |  | -0.0021
ANO1 del476-501/E649A/R541A | inside-out patch clamp | 30 µM, membrane voltage 120 mV |  | 1
Anoctamin-1 (ANO1, Homo sapiens, UniProt Q5XXA6, del476-501/M544A) | inhibitor, whole-cell voltage clamp | 30 µM, M518A mutant | reference: untreated | 0.779
ANO1 del476-501/R541A | inhibitor, inside-out patch clamp | 30 µM, R515A mutant at -100 mV |  | -0.555
ANO1 del476-501/E649A/R541A | inside-out patch clamp | 30 µM, membrane voltage 40 mV |  | 0.217
TMEM16A (human) K603A/E623A | inside-out patch clamp | 30 µM, membrane voltage -20 mV |  | -0.0732

Block 3
Organism: Sarcocystis neurona
Read-out: parasite growth
Tested at: 10 µM
Notes: secondary screen
SMILES | inhibition
CCCc1nc(C)c2c(=O)[nH]c(-c3cc(S(=O)(=O)N4CCN(CC)CC4)ccc3OCC)nn12.O=C(O)CC(O)(CC(=O)O)C(=O)O | -55%
O=C(NCCN1CCOCC1)c1ccc(Cl)cc1 | -37.2%
CCN(CC)CC#CCOC(=O)C(O)(c1ccccc1)C1CCCCC1 (stereo not shown) | -24.7%
COc1ccc(CN2CCN(C(c3ccc(F)cc3)c3ccc(F)cc3)CC2)c(OC)c1OC.Cl.Cl | 52.5%
CC1(C)C[C@@H]1C(=O)N/C(=C\CCCCSC[C@H](N)C(=O)O)C(=O)[O-].[Na+] | -47.3%
OC[C@H]1O[C@@H](Oc2cc(O)cc(/C=C/c3ccc(O)cc3)c2)[C@H](O)[C@@H](O)[C@@H]1O | -20.1%
CN(C)CCC=C1c2ccccc2COc2ccccc21 | -21.4%
CC(=O)[C@H]1CC[C@H]2[C@@H]3CCC4=CC(=O)CC[C@]4(C)[C@H]3CC[C@]12C | -11.1%
Nc1ccn([C@H]2CC[C@@H](CO)O2)c(=O)n1 | -25.5%
C[C@]12CCC(=O)C=C1CC[C@@H]1[C@@H]2CC[C@@]2(C)[C@H]1CC[C@]2(O)C(=O)CO | 28.3%
CN(C)[C@@H]1C(O)=C(C(N)=O)C(=O)[C@@]2(O)C(O)=C3C(=O)c4c(O)ccc(Cl)c4[C@@H](O)[C@H]3C[C@@H]12 | -2.3%
C[N+]1(C)CCC(OC(=O)C(O)(c2ccccc2)C2CCCC2)C1.[Br-] (stereo not shown) | -2.9%
CC(=O)O[C@]1(C(C)=O)CC[C@H]2[C@@H]3C[C@H](C)C4=CC(=O)CC[C@]4(C)[C@H]3CC[C@@]21C | -40.4%
CCN(CC)CC(=O)Nc1c(C)cccc1C | -51.2%
COc1ccc(-c2cc(=O)c3c(OC)c(OC)c(OC)c(OC)c3o2)cc1OC | 1.7%
COCCCOc1ccnc(C[S+]([O-])c2nc3ccccc3[nH]2)c1C (stereo not shown) | -53.9%

Block 4
SMILES: CCN(CC)CCNC(=O)c1c(C)[nH]c(/C=C2\C(=O)Nc3ccc(Cl)cc32)c1C
Read-out: enzyme activity
Action: inhibitor
Tested at: 0.5 µM
Reference: control
target | remaining activity [%]
Tyrosine-protein kinase ABL1 (ABL1, Homo sapiens, UniProt P00519) | 24.7
Dual specificity tyrosine-phosphorylation-regulated kinase 3 (DYRK3, Homo sapiens, UniProt O43781) | 81.8
Phosphorylase b kinase gamma catalytic chain, skeletal muscle/heart isoform (PHKG1, Homo sapiens, UniProt Q16816) | 3.19
Mitogen-activated protein kinase kinase kinase kinase 4 (MAP4K4, Homo sapiens, UniProt O95819) | 4.33
Ephrin type-A receptor 4 (EPHA4, Homo sapiens, UniProt P54764) | 88
Testis-specific serine/threonine-protein kinase 2 (TSSK2, Homo sapiens, UniProt Q96PF2) | 66.9
MAP kinase-activated protein kinase 3 (MAPKAPK3, Homo sapiens, UniProt Q16644) | 101
Cyclin-dependent kinase 6, with cyclin D3 (CDK6, Homo sapiens, UniProt Q00534) | 41.6
Serine/threonine-protein kinase 17A (STK17A, Homo sapiens, UniProt Q9UEE5) | 16.1
Serine/threonine-protein kinase WNK3 (WNK3, Homo sapiens, UniProt Q9BYP7) | 86.3
Ephrin type-B receptor 4 (EPHB4, Homo sapiens, UniProt P54760) | 76.9
Homeodomain-interacting protein kinase 2 (HIPK2, Homo sapiens, UniProt Q9H2X6) | 20

Excerpt of the above (block 4):
target | remaining activity [%]
MAP kinase-activated protein kinase 3 (MAPKAPK3, Homo sapiens, UniProt Q16644) | 101
Cyclin-dependent kinase 6, with cyclin D3 (CDK6, Homo sapiens, UniProt Q00534) | 41.6
Serine/threonine-protein kinase 17A (STK17A, Homo sapiens, UniProt Q9UEE5) | 16.1
Serine/threonine-protein kinase WNK3 (WNK3, Homo sapiens, UniProt Q9BYP7) | 86.3
Ephrin type-B receptor 4 (EPHB4, Homo sapiens, UniProt P54760) | 76.9
Homeodomain-interacting protein kinase 2 (HIPK2, Homo sapiens, UniProt Q9H2X6) | 20
